Assay results of several laboratories.
Lines come from different studies, so protocols differ. ± marks the error that the study gave.
Chain of UniProt P27487 (whole entry, looked up): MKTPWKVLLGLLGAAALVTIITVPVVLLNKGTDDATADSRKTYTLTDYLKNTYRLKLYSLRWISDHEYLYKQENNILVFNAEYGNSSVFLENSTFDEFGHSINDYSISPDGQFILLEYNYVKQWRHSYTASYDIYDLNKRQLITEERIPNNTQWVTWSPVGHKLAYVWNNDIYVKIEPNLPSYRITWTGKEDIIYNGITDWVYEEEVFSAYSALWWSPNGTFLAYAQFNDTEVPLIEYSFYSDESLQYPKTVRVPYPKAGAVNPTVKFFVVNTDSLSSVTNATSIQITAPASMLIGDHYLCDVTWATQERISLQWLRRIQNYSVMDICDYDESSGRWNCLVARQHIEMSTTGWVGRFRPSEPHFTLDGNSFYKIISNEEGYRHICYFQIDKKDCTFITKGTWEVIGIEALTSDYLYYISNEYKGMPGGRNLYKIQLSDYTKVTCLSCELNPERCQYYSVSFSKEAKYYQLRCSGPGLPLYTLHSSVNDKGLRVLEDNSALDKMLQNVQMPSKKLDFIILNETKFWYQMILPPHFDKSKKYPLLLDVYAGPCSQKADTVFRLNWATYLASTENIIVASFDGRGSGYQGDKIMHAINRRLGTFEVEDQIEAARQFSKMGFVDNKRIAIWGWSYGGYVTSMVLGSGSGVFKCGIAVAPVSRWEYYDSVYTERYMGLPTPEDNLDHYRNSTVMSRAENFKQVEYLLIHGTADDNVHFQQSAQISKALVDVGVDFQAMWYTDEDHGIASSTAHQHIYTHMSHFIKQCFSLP
Chain of UniProt Q9NR63 (whole entry, looked up): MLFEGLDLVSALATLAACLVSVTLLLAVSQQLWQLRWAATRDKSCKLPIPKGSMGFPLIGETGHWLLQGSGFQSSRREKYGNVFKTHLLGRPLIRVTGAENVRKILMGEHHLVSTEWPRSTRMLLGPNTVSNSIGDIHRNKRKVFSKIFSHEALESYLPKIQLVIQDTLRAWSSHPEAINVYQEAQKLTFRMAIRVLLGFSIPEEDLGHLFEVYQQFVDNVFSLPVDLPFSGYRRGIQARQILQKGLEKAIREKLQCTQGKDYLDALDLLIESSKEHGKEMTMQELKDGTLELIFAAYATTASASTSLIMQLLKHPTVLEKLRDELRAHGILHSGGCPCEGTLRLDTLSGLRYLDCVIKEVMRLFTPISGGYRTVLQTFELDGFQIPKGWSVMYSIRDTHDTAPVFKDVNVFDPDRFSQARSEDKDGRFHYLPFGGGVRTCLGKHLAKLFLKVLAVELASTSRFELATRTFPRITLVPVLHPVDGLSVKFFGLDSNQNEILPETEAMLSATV

N=C(N)NCCC[C@@H]1NC(=O)[C@H](CCCCNC(=O)[C@H](CC(=O)O)NC(=O)[C@H](CC(=O)O)NC(=O)[C@H](CC(=O)O)NC(=O)CC[C@H](NC(=O)CCOCCOCCOCCOCCNC(=O)c2ccc(NN)nc2)C(=O)N[C@@H](CC(=O)O)C(=O)N[C@@H](CC(=O)O)C(=O)N[C@@H](CC(=O)O)C(=O)NCCCC[C@@H]2NC(=O)[C@@H](Cc3ccccc3)NC(=O)[C@H](CC(=O)O)NC(=O)CNC(=O)[C@H](CCCNC(=N)N)NC2=O)NC(=O)[C@@H](Cc2ccccc2)NC(=O)[C@H](CC(=O)O)NC(=O)CNC1=O [technetium-99m labelled] — tissue uptake (γ-counting; female athymic nude mice, U-87 MG xenograft, eyes; intravenous, 2 h): 0.54 ± 0.15 %ID/g
COc1cccc2c1C(=O)c1c(O)c3c(c(O)c1C2=O)C[C@@](O)(C(=O)CO)C[C@@H]3O[C@H]1C[C@H](NC(=O)[C@H](CC(C)C)NC(=O)[C@H](C)NC(=O)[C@H](CC(C)C)NC(=O)CCNC(=O)CCC(=O)O)[C@H](O)[C@H](C)O1 — Cmax (mouse, E0771 tumour-bearing, kidney; intravenous, 92 µmol/kg): 811 µM
melittin — partitioning enthalpy (isothermal titration calorimetry; POPC/POPG LUVs 75:25%; 100 µM, pH 7.0, 25 °C): -2.7 kcal/mol
CC(C)C[C@H](NC(=O)[C@H](Cc1c[nH]cn1)NC(=O)[C@H](Cc1ccc(O)cc1)NC(=O)[C@H](CCCNC(=N)N)NC(=O)[C@H](Cc1ccc(O)cc1)NC(=O)[C@H](CCCCN)NC(=O)[C@@H](N)CCCCN)C(=O)N[C@@H](CCCCN)C(=O)N1CCC[C@H]1C(=O)N[C@@H](Cc1ccccc1)C(=O)NCCCC[C@H](NC(=O)[C@H](Cc1ccccc1)NC(=O)[C@@H]1CCCN1C(=O)[C@H](CCCCN)NC(=O)[C@H](CC(C)C)NC(=O)[C@H](Cc1c[nH]cn1)NC(=O)[C@H](Cc1ccc(O)cc1)NC(=O)[C@H](CCCNC(=N)N)NC(=O)[C@H](Cc1ccc(O)cc1)NC(=O)[C@H](CCCCN)NC(=O)[C@H](CCCCN)NC(=O)c1ccc(CNC(=NC(=O)c2ccccc2)Nc2ccc(Br)cc2)cc1)C(N)=O — CC50 (Swiss mouse peritoneal macrophages; cytotoxicity, MTT): 550 ± 0.011 µM
N=C(N)NCCC[C@@H]1NC(=O)[C@H](CCCCNC(=O)CNC(=O)CNC(=O)CNC(=O)CC[C@H](NC(=O)CCOCCOCCOCCOCCNC(=O)c2ccc(NN)nc2)C(=O)NCC(=O)NCC(=O)NCC(=O)NCCCC[C@@H]2NC(=O)[C@@H](Cc3ccccc3)NC(=O)[C@H](CC(=O)O)NC(=O)CNC(=O)[C@H](CCCNC(=N)N)NC2=O)NC(=O)[C@@H](Cc2ccccc2)NC(=O)[C@H](CC(=O)O)NC(=O)CNC1=O [technetium-99m labelled] — tissue uptake (γ-counting; female athymic nude mice, U-87 MG xenograft, blood; intravenous, 0.5 h): 0.65 ± 0.15 %ID/g
CCN1C(=CC=CC=CC2=[N+](CCCCCC(=O)NCCCC[C@H](NC(=O)CN3CCN(CC(=O)O)CCN(CC(=O)O)CCN(CC(=O)O)CC3)C(=O)NCC(=O)NCC(=O)N[C@@H](Cc3ccc(O)cc3)C(=O)NCC(=O)N[C@H]3CSSC[C@@H]4NC(=O)CNC(=O)[C@H](C)NC(=O)[C@H](CC(C)C)NC(=O)[C@@H]5CSSC[C@@H](C(=O)NCC(N)=O)NC(=O)[C@H](Cc6ccccc6)NC(=O)CNC(=O)[C@H](CC(N)=O)NC(=O)[C@@H]6CCCN6C(=O)CNC(=O)[C@H](CSSC[C@H](NC(=O)[C@H](CO)NC(=O)[C@H]([C@@H](C)O)NC(=O)[C@@H]6CCCN6C(=O)[C@H](C)NC(=O)[C@H](Cc6c[nH]c7ccccc67)NC(=O)[C@H](CC(=O)O)NC(=O)CNC(=O)[C@H](CCCNC(=N)N)NC(=O)CNC(=O)[C@H](CCC(N)=O)NC(=O)[C@@H]6CCCN6C3=O)C(=O)N[C@@H](CO)C(=O)N[C@@H](CCC(N)=O)C(=O)N[C@@H](CC(=O)O)C(=O)N[C@@H](CO)C(=O)N[C@@H](CC(=O)O)C(=O)N5)NC(=O)[C@H](C(C)C)NC4=O)c3ccc4c(S(=O)(=O)[O-])cc(S(=O)(=O)O)cc4c3C2(C)C)C(C)(C)c2c1ccc1c(S(=O)(=O)O)cc(S(=O)(=O)O)cc21 (single isomer, unassigned) [copper-64 labelled] — tissue uptake (nude mouse, kidney; intravenous, 100 µCi, 4 h): 80.9 ± 14.9 %ID/g
CC[C@H](C)[C@H](NC(=O)[C@H](CCCCN)NC(=O)[C@@H](NC(=O)[C@H](CCC(N)=O)NC(=O)[C@H](CCCNC(=N)N)NC(=O)[C@@H](N)CSSC[C@H](NC(C)=O)C(=O)NCCN(CC(=O)NCCN(CC(=O)NCCN(CC(=O)NCCN(CC(=O)NCCN(CC(=O)NCCN(CC(=O)NCCN(CC(=O)NCCN(CC(=O)NCCN(CC(=O)NCCN(CC(=O)NCCN(CC(=O)NCCN(CC(=O)NCCN(CC(=O)NCCN(CC(=O)NCCN(CC(=O)NCCN(CC(N)=O)C(=O)Cn1cc(C)c(=O)[nH]c1=O)C(=O)Cn1ccc(N)nc1=O)C(=O)Cn1cc(C)c(=O)[nH]c1=O)C(=O)Cn1cnc2c(N)ncnc21)C(=O)Cn1cnc2c(=O)[nH]c(N)nc21)C(=O)Cn1cnc2c(N)ncnc21)C(=O)Cn1ccc(N)nc1=O)C(=O)Cn1cc(C)c(=O)[nH]c1=O)C(=O)Cn1ccc(N)nc1=O)C(=O)Cn1cnc2c(=O)[nH]c(N)nc21)C(=O)Cn1cnc2c(=O)[nH]c(N)nc21)C(=O)Cn1cnc2c(N)ncnc21)C(=O)Cn1ccc(N)nc1=O)C(=O)Cn1ccc(N)nc1=O)C(=O)Cn1ccc(N)nc1=O)C(=O)Cn1cc(C)c(=O)[nH]c1=O)[C@@H](C)CC)C(=O)N[C@@H](Cc1c[nH]c2ccccc12)C(=O)N[C@@H](Cc1ccccc1)C(=O)N[C@@H](CCC(N)=O)C(=O)N[C@@H](CC(N)=O)C(=O)N[C@@H](CCCNC(=N)N)C(=O)N[C@@H](CCCNC(=N)N)C(=O)N[C@@H](CCSC)C(=O)N[C@@H](CCCCN)C(=O)N[C@@H](Cc1c[nH]c2ccccc12)C(=O)N[C@@H](CCCCN)C(=O)N[C@@H](CCCCN)C(=O)O — fluorescence-positive cells (CEM; cellular uptake, flow cytometry; 200 nM, 1 min): > 90%
CYP26B1 (Homo sapiens, UniProt Q9NR63) — Km (CC1=C(/C=C/C(C)=C/C=C/C(C)=C/C(=O)O)C(C)(C)CCC1; steady-state kinetics; 37 °C, not purified): 0.019 µM
CSCC[C@H](NC(=O)[C@H](CC(C)C)NC(=O)[C@H](Cc1c[nH]cn1)NC(=O)CNC(=O)[C@@H](NC(=O)[C@H](C)NC(=O)[C@H](Cc1c[nH]c2ccccc12)NC(=O)[C@H](CCC(N)=O)NC(=O)CCCCCNC(=O)[C@H](CCC(=O)NCCCC[C@@H]1NC(=O)[C@@H](Cc2ccc(O)cc2)NC(=O)[C@H](CC(=O)O)NC(=O)CNC(=O)[C@H](CCCNC(=N)N)NC1=O)NC(=O)CN1CCN(CC(=O)O)CCN(CC(=O)O)CC1)C(C)C)C(N)=O [copper-64 labelled] — tissue uptake (ICR SCID mouse, female, kidneys; intravenous, 750 kBq, 4 h): 2.18 ± 0.26 %ID/g
COc1cccc2c1C(=O)c1c(O)c3c(c(O)c1C2=O)C[C@@](O)(C(=O)CO)C[C@@H]3O[C@H]1C[C@H](NC(=O)[C@@H]2CCCN2C(=O)CNC(=O)[C@H](CC(C)C)NC(=O)[C@H](C)NC(=O)CP(=O)(O)O)[C@H](O)[C@H](C)O1 — Cmax (mouse, E0771 tumour-bearing, liver; intravenous, 92 µmol/kg): 69 µM
CC[C@H]1CN2CCc3cc(OC)c(OC)cc3[C@@H]2C[C@@H]1C[C@@H]1c2cc(OC)c(OC)cc2CCN1C(=O)OCc1ccc(NC(=O)[C@@H]2CCCN2C(=O)[C@H](C)N)cc1 — emetine released (DPP4 (Homo sapiens, UniProt P27487); substrate, HPLC-MS; 500 µM, 24 h, pH 7.8, 37 °C, 1% DMSO, added: DPPIV 30 nM): 98%

A few entries again:
COc1cccc2c1C(=O)c1c(O)c3c(c(O)c1C2=O)C[C@@](O)(C(=O)CO)C[C@@H]3O[C@H]1C[C@H](NC(=O)[C@@H]2CCCN2C(=O)CNC(=O)[C@H](CC(C)C)NC(=O)[C@H](C)NC(=O)CP(=O)(O)O)[C@H](O)[C@H](C)O1 — Cmax (mouse, E0771 tumour-bearing, liver; intravenous, 92 µmol/kg): 69 µM
CC[C@H]1CN2CCc3cc(OC)c(OC)cc3[C@@H]2C[C@@H]1C[C@@H]1c2cc(OC)c(OC)cc2CCN1C(=O)OCc1ccc(NC(=O)[C@@H]2CCCN2C(=O)[C@H](C)N)cc1 — emetine released (DPP4 (Homo sapiens, UniProt P27487); substrate, HPLC-MS; 500 µM, 24 h, pH 7.8, 37 °C, 1% DMSO, added: DPPIV 30 nM): 98%
